Experimental data collected from several papers.
Lines come from different studies, so protocols differ. Values after ≈ are worked out from the molar mass of the structure shown.
Sequence of UniProt Q13153 (whole entry, looked up): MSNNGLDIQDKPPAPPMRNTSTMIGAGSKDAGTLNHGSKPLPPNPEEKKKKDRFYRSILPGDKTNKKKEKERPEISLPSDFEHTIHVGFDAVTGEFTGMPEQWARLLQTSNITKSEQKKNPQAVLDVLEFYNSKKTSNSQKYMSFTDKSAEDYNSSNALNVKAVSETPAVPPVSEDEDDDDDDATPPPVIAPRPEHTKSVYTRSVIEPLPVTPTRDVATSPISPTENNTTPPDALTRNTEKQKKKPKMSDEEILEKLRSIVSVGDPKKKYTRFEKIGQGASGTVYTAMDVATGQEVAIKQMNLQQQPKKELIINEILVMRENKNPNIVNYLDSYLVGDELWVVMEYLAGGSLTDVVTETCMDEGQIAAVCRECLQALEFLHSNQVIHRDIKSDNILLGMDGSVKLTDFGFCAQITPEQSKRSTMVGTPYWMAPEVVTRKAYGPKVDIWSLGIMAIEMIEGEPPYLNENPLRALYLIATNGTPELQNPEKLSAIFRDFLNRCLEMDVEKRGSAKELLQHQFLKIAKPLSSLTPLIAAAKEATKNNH

| SMILES | target or system | test | test system | setting | measurement | result |
| --- | --- | --- | --- | --- | --- | --- |
| C[C@@H]1[C@H](O)[C@@H](C)/C=C/C=C/C=C/C=C/C=C/C=C/C=C/[C@H](O[C@@H]2O[C@H](C)[C@@H](O)[C@H](N)[C@@H]2O)C[C@@H]2O[C@](O)(C[C@@H](O)C[C@@H](O)[C@H](O)CC[C@@H](O)C[C@@H](O)CC(=O)O[C@H]1C)C[C@H](O)[C@H]2C(=O)O | Candida albicans | microbial killing, broth dilution | SP3931 | 48 h | MFC | 0.5 µM |
| [2H]c1c([2H])c([C@]2([2H])CCCN2C(=O)C(C)(C)Oc2ccc3cn[nH]c3c2)c([2H])c([2H])c1C([2H])([2H])[2H] | PAK1 (Homo sapiens, UniProt Q13153) | binding, competition with immobilised ligand | – | 1 µM | remaining binding | 92% |
| COC(=O)c1cc(-c2cccc(NC(=S)Nc3ccc(C)cc3)c2)on1 | Mycolicibacterium fortuitum | microbial growth, broth dilution | ATCC6841 | 48 h | MIC | > 64 µg/mL |
| C#Cc1cccc(O)c1C=NNC(=O)c1ccc(COC)cc1 | Candida albicans | microbial growth | – | pH 7.4 | MIC80 | 8 µg/mL (≈ 25.9 µM) |
| Nc1ncnc2c([C@@H]3N[C@H](CO)[C@@H](O)[C@H]3O)c[nH]c12 | Dengue virus | viral replication | Vero 76, DENV2 | 94.7 µM | inhibition | 100% |
| Cc1cc(Nc2ccc(Cl)c(Cl)c2)n2nc(C)nc2n1 | Plasmodium falciparum | parasite growth, SYBR Green | 3D7 | 72 h | EC50 | > 12.5 µM |
| COC(=O)c1cc(-c2cccc(NC(=O)Nc3cc(Cl)ccc3Cl)c2)on1 | Pseudomonas aeruginosa | microbial growth, broth dilution | ATCC27853 | – | MIC | > 64 µg/mL |
| OC(Cn1cncn1)(Cn1cncn1)c1ccc(F)cc1F | Candida albicans | microbial killing, broth dilution | CGMCC2 | 48 h | MFC | 16 µM |
| C#Cc1ccc(C=NNC(=O)c2ccc(COCC)cc2)c(O)c1 | Candida albicans | microbial growth | – | pH 7.4 | MIC80 | 1 µg/mL (≈ 3.1 µM) |
| COC(=O)c1cc(-c2cccc(NC(=O)Nc3cccc(Cl)c3Cl)c2)on1 | Mycobacteroides chelonae | microbial growth, broth dilution | ATCC35752 | 48 h | MIC | > 64 µg/mL |
| Cc1cc(Nc2ccc(C(F)(F)F)cc2)n2ncnc2n1 | Plasmodium falciparum | parasite growth, SYBR Green | 3D7 | 72 h | EC50 | 1.2 µM |
| COC(=O)c1cc(-c2cccc(NC(=O)Nc3cccc(C#N)c3)c2)on1 | Mycolicibacterium fortuitum | microbial growth, broth dilution | ATCC6841 | 48 h | MIC | > 64 µg/mL |
| Cc1ccc(-n2nc(C(C)(C)C)cc2NC(=O)Nc2ccc(OCCN3CCOCC3)c3ccccc23)cc1 | Betacoronavirus 1 | viral replication | MRC5, OC43 | – | IC50 | 11 µM |
| C#Cc1ccc(O)c(C=NNC(=O)c2ccc(COC)cc2)c1 | Cryptococcus neoformans | microbial killing | – | – | MFC | 1 µg/mL |
| O=C(NNc1ccc(Cl)cc1)c1nnc(C23CC4CC(CC(C4)C2)C3)o1 | Rhizoctonia solani | microbial growth | – | 50 µg/mL | inhibition | 68.7% |
| COC(=O)c1cc(-c2cccc(NC(=O)Nc3cccc(C(F)(F)F)c3)c2)on1 | Klebsiella pneumoniae | microbial growth, broth dilution | BAA1705 | – | MIC | > 64 µg/mL |
| CCCCCCCCNCC(O)c1cc(Cl)cc2c1-c1ccc(Cl)cc1C2 (racemic) | Plasmodium falciparum | parasite growth, SYBR Green | W2 | 48 h, drug-resistant strain, blood stage | IC50 | 0.0037 µM |
| COC(=O)c1cc(-c2cccc(NC(=O)Nc3ccc(F)cc3F)c2)on1 | Mycolicibacterium fortuitum | microbial growth, broth dilution | ATCC6841 | 48 h | MIC | > 64 µg/mL |
| C#Cc1ccc(O)c(C=NNC(=O)c2ccc(C3(C(F)(F)F)N=N3)cc2)c1 | Cryptococcus neoformans | microbial killing | – | – | MFC | 1 µg/mL |
| Cc1ccc(NNC(=O)c2nnc(CC34CC5CC(CC(C5)C3)C4)o2)cc1 | Rhizoctonia solani | microbial growth | – | 50 µg/mL | inhibition | 48.7% |
| C#Cc1cccc(O)c1C=NNC(=O)c1ccc(Br)cc1 | Cryptococcus neoformans | microbial growth, broth dilution | – | pH 7.4 | MIC80 | 0.125 µg/mL (≈ 0.364 µM) |
| O=C(CSc1nnc(O)n1Cc1ccccc1)Nc1ccccc1-c1ccccc1 | Plasmodium falciparum | parasite growth, SYBR Green | 3D7 | 72 h | EC50 | 1.76 µM |
| C#Cc1ccc(C=NNC(=O)c2ccc(COC)cc2)c(O)c1 | Cryptococcus neoformans | microbial growth, broth dilution | – | pH 7.4 | MIC80 | 0.015 µg/mL (≈ 0.0486 µM) |
| COC(=O)c1cc(-c2cccc(NC(=O)Nc3ccc(Cl)c(Cl)c3)c2)on1 | Mycolicibacterium fortuitum | microbial growth, broth dilution | ATCC6841 | 48 h | MIC | > 64 µg/mL |

Excerpt of the above:
| SMILES | target or system | test | test system | setting | measurement | result |
| --- | --- | --- | --- | --- | --- | --- |
| O=C(CSc1nnc(O)n1Cc1ccccc1)Nc1ccccc1-c1ccccc1 | Plasmodium falciparum | parasite growth, SYBR Green | 3D7 | 72 h | EC50 | 1.76 µM |
| C#Cc1ccc(C=NNC(=O)c2ccc(COC)cc2)c(O)c1 | Cryptococcus neoformans | microbial growth, broth dilution | – | pH 7.4 | MIC80 | 0.015 µg/mL (≈ 0.0486 µM) |
| COC(=O)c1cc(-c2cccc(NC(=O)Nc3ccc(Cl)c(Cl)c3)c2)on1 | Mycolicibacterium fortuitum | microbial growth, broth dilution | ATCC6841 | 48 h | MIC | > 64 µg/mL |
